{"data": "Results collected from several papers", "note": "Each numbered part is a random draw from the data of one study; scales do not carry over between parts. Substitutions count along the parent as printed."}
{"data": "Sample 1", "target": "Fragile X messenger ribonucleoprotein 1, C-terminal low-complexity region (Fmr1, Mus musculus, UniProt P35922)", "technique": "RNA Bind-n-Seq", "form": "RNA", "medium": "in vitro", "tested at": "200 nM", "notes": "whole 134-nt RNA, ends assumed", "added": "150 mM LiCl", "baseline": "input library", "reading": "higher = stronger binding", "all molecules": "7-deaza-guanosine replaces G", "shared flanks, not repeated": "GGGAGUUCUACAGUCCGACGAUC … UGGAAUUCUCGGGUGUCAAGG"}
{"Oligonucleotide": "UCCUCAAGUCCUGUGCUACACAUCGUAUGUACCGAAUCGGUGGUUUGGAGGAAAGUAUUAUGUUACGCCGUUCGGAUCUGCACUUCCAGC", "log2 enrichment": -0.36}
{"Oligonucleotide": "GCAGGAAGUAAAAACAAAUGGAAAUGCUUCGGAUAGUGGCAGGGGUGGGGGGUGCUAAGGAAAGGGUGGGAUGGGAGUGGGUAAAGAGUU", "log2 enrichment": 1.4}
{"Oligonucleotide": "UAACUUUAGAGGAGGAUCUGAGGGAUAUGGCAGUGGACGUGGAUUUGGGGAUGGCUAUAAUGGGUAUGGAGGAGGACCUGGAGGUGGCAA", "log2 enrichment": 0.355}
{"Oligonucleotide": "CACAGACAACACGCACCCACACAGACACAGAGGGAAGGGGUUGGGAUGGGGACAGGGUGGACAGCAGGGCGGGGUAGGACCCCAGCCCCU", "log2 enrichment": -1.52}
{"Oligonucleotide": "CCCAGACAACACGCACCCACACAGACACAGAGGGAAGGGGUUGGGAUGGGGACAGGGUGCACAGCAGGGCGGGGUAGGACCCCAGCCCCU", "log2 enrichment": -1.54}
{"Oligonucleotide": "UAACUUUAGAGGAGGAUCUGAUGGAUAUGGCAGUGGACGUGGAUUUGGGGAUGGCUAUAAUGGGUAUGGAGGAGGAACUGGAGGUGGCAA", "log2 enrichment": 1.11}
{"Oligonucleotide": "AGUCCUGUGCUACACAUCGUAUGUACCGAAUCGGCCCCCGGGCCCCCGGGCCCCCGGGAAAGUAUUAUGUUACGCCGUUCGGAUCUGCAC", "log2 enrichment": -2.61}
{"Oligonucleotide": "UCCUCAAGUCCUGUGCUACACAUCGUAUGUACCGAAUCGGGAGGAGGAGGGGAAAGUAUUAUGUUACGCCGUUCGGAUCUGCACUUCCAG", "log2 enrichment": -0.918}
{"data": "Sample 2", "target": "Histone acetyltransferase KAT6A, winged helix 2, GST fusion (KAT6A, Homo sapiens, UniProt Q92794, residues 85-181)", "technique": "protein binding microarray", "form": "double-stranded DNA, one strand shown", "medium": "in vitro", "tested at": "not given", "notes": "8-mer, flanks averaged, mean of 2 arrays, mostly near background", "baseline": "not given", "reading": "higher = stronger binding", "Construct (chain)": "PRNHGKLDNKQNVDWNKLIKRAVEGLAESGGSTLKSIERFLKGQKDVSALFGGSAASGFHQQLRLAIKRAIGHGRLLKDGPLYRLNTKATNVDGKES"}
{"Oligonucleotide": "CATCACCG", "E-score": -0.106}
{"Oligonucleotide": "CCACTACG", "E-score": 0.129}
{"Oligonucleotide": "CAACCCTG", "E-score": 0.124}
{"Oligonucleotide": "ACGGAGTA", "E-score": 0.141}
{"Oligonucleotide": "ATTATTTC", "E-score": 0.107}
{"Oligonucleotide": "CGATCCGC", "E-score": 0.14}
{"Oligonucleotide": "GTATTTAA", "E-score": -0.0827}
{"Oligonucleotide": "ATCAAAAG", "E-score": 0.0161}
{"Oligonucleotide": "ACGTCGGA", "E-score": -0.0665}
{"Oligonucleotide": "AGCAAACG", "E-score": 0.0503}
{"Oligonucleotide": "AAAAATTG", "E-score": -0.0922}
{"Oligonucleotide": "GACTTTCC", "E-score": -0.132}
{"Oligonucleotide": "CTAATACC", "E-score": -0.0325}
{"Oligonucleotide": "GTCAATTA", "E-score": 0.0122}
{"Oligonucleotide": "GATCACCC", "E-score": 0.0458}
{"Oligonucleotide": "AATAACTG", "E-score": -0.053}
{"Oligonucleotide": "GAGAGAGA", "E-score": -0.103}
{"Oligonucleotide": "AAACCGTA", "E-score": -0.154}
{"Oligonucleotide": "ATTCCTAG", "E-score": -0.00884}
{"Oligonucleotide": "GGGTGCAA", "E-score": 0.1}
{"Oligonucleotide": "ACCGATAT", "E-score": -0.0791}
{"data": "Sample 3", "target": "CCNA1, cyclin fold, Cln2 fusion (human)", "technique": "yeast growth competition, sequencing", "medium": "yeast", "notes": "weak parent motif", "baseline": "not given", "reading": "higher = stronger binding", "parent": "CDKN1B docking peptide (human); PSACRNLFGPVDH; partner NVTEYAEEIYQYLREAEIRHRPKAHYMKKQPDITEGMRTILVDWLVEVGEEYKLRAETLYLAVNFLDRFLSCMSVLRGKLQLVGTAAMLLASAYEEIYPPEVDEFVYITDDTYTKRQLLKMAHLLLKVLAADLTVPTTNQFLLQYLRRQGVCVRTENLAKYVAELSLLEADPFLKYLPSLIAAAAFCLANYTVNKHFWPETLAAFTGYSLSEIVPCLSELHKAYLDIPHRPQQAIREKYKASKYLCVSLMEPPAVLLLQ"}
{"Substitution": "F8C", "normalised enrichment score": 0.13}
{"Substitution": "C4R", "normalised enrichment score": 0.673}
{"Substitution": "C4A", "normalised enrichment score": 0.491}
{"Substitution": "C4F", "normalised enrichment score": 0.13}
{"Substitution": "R5H", "normalised enrichment score": 0.152}
{"Substitution": "H13C", "normalised enrichment score": 0.4}
{"Substitution": "N6I", "normalised enrichment score": 0.166}
{"Substitution": "R5T", "normalised enrichment score": 0.123}
{"Substitution": "A3W", "normalised enrichment score": 0.379}
{"Substitution": "V11M", "normalised enrichment score": 0.277}
{"Substitution": "R5Q", "normalised enrichment score": 0.303}
{"Substitution": "D12I", "normalised enrichment score": 0.375}
{"Substitution": "C4P", "normalised enrichment score": 0.143}
{"Substitution": "F8S", "normalised enrichment score": 0.483}
{"data": "Sample 4", "target": "UBE2N UBC core domain (UniProt P61088)", "technique": "yeast two-hybrid", "medium": "yeast", "notes": "mostly zero background", "baseline": "not given", "reading": "higher = stronger interaction", "B1": "MSL2 RING domain (UniProt Q9HCI7); chain LLPYFRQSLSCCVCGHLLQDPIAPTNSTCQHYVCKTCKGKKMMMKPSCSWCKDYEQFEENKQ", "B2": "RNF4 RING domain (UniProt P78317); chain TGLRPSGTVSCPICMDGYSEIVQNGRLIVSTECGHVFCSQCLRDSLKNANTCPTCRKKINHKRYHP", "B3": "RNF5 RING domain (UniProt Q99942); chain ERGGAGATFECNICLETAREAVVSVCGHLYCWPCLHQWLETRPERQECPVCKAGISREKVVP", "B4": "TRIM3 RING domain (UniProt O75382); chain VQPMDKQFLVCSICLDRYQCPKVLPCLHTFCERCLQNYIPAQSLTLSCPVCRQTSILPEQGV", "Residues (chain)": "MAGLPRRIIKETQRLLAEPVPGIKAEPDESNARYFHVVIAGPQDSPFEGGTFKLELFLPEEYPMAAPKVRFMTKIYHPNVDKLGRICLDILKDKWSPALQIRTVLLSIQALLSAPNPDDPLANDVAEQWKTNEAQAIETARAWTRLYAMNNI"}
{"Sequence": "B1 (MSL2 RING domain)", "lacZ reporter activity": 0}
{"Sequence": "KRQCSDVDDICSICQAEFQKPILLICQHIFCEECMTLWFNREKTCPLCRTVISDHINKW (RNFT1 RING domain (UniProt Q5M7Z0))", "lacZ reporter activity": 0}
{"Sequence": "B2 (RNF4 RING domain)", "lacZ reporter activity": 0}
{"Sequence": "B3 (RNF5 RING domain)", "lacZ reporter activity": 0}
{"Sequence": "B4 (TRIM3 RING domain)", "lacZ reporter activity": 0}
{"Sequence": "FLKKLEQSFMCVCCQELVYQPVTTECFHNVCKDCLQRSFKAQVFSCPACRHDLGQNYIMI (UHRF2 RING domain (UniProt Q96PU4))", "lacZ reporter activity": 0}
{"Sequence": "MANWVFCNRCFQPPHRTSCFSLTNCGHVYCDACLGKGKKNECLICKAPCRTVLLSK (RNF212 RING domain (UniProt Q495C1))", "lacZ reporter activity": 0}
{"data": "Sample 5", "target": "Sal-like protein 4, full length isoform A (SALL4, Homo sapiens, UniProt Q9UJQ4, residues 1-1053)", "technique": "universal PBM", "form": "double-stranded DNA, one strand shown", "medium": "in vitro", "tested at": "600 nM", "notes": "8-mer, flanks averaged, mean of replicates", "reading": "higher = stronger binding", "chain of UniProt Q9UJQ4 (whole entry, looked up)": "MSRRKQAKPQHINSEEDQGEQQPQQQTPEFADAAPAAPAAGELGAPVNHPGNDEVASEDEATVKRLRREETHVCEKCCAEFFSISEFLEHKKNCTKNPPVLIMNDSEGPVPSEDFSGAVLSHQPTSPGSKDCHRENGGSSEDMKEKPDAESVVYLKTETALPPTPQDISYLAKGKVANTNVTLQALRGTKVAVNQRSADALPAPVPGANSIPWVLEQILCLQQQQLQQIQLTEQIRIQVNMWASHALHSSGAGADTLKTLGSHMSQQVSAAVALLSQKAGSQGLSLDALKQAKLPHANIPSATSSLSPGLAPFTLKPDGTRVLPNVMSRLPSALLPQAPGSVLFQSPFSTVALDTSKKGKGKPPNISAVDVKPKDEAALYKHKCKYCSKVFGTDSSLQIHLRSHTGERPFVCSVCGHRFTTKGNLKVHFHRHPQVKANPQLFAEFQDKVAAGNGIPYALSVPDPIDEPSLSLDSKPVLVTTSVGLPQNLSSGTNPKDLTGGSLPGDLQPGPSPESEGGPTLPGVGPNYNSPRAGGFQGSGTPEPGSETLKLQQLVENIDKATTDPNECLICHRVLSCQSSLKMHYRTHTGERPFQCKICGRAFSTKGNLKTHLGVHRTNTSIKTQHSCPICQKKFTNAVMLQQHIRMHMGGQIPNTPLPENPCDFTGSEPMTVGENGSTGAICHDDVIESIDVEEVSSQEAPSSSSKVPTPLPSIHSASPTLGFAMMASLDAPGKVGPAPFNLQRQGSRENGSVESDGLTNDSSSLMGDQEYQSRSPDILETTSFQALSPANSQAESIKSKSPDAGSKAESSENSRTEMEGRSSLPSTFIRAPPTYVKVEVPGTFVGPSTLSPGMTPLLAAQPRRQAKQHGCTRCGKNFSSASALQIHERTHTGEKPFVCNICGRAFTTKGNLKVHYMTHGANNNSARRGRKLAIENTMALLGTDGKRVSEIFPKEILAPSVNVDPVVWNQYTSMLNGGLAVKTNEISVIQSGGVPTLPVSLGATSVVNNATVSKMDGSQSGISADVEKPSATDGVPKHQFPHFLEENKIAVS"}
{"Oligonucleotide": "GCGGAGGA", "E-score": -0.23}
{"Oligonucleotide": "AAATACAC", "E-score": 0.219}
{"Oligonucleotide": "AACTCGGT", "E-score": -0.029}
{"Oligonucleotide": "AGTGAACT", "E-score": -0.051}
{"Oligonucleotide": "GTGCTAAC", "E-score": -0.0359}
{"Oligonucleotide": "ACTCACGC", "E-score": -0.23}
{"Oligonucleotide": "CTAATCAG", "E-score": 0.0641}
{"Oligonucleotide": "CCGATAAG", "E-score": -0.0156}
{"Oligonucleotide": "CATGATCC", "E-score": -0.0281}
{"Oligonucleotide": "CTGCTTGA", "E-score": -0.139}
{"Oligonucleotide": "ACCTAGGA", "E-score": 0.00341}
{"Oligonucleotide": "GGGGAAAC", "E-score": -0.257}
{"Oligonucleotide": "AGCCCCTC", "E-score": -0.19}
{"Oligonucleotide": "ACATGCGT", "E-score": 0.00222}
{"Oligonucleotide": "GCAGATAC", "E-score": 0.0106}
{"Oligonucleotide": "ACGAAGGC", "E-score": -0.299}
{"Oligonucleotide": "CTGATAAA", "E-score": 0.282}
{"Oligonucleotide": "CAAATTGA", "E-score": 0.00696}
{"Oligonucleotide": "AGAGAGTC", "E-score": -0.0987}
{"Oligonucleotide": "ATTTGCAC", "E-score": 0.159}
{"Oligonucleotide": "CACTGATG", "E-score": -0.143}
{"data": "Sample 6", "target": "ABI1, truncated, D143A, DHFR fusion (Arabidopsis thaliana)", "technique": "DHFR PCA, deep sequencing", "medium": "yeast", "notes": "methotrexate growth selection, single substitutions", "added": "(+)-ABA 1.4 µM", "baseline": "wild-type fitted maximum", "reading": "higher = stronger binding", "parent": "PYL1, truncated, DHFR fusion (Arabidopsis thaliana); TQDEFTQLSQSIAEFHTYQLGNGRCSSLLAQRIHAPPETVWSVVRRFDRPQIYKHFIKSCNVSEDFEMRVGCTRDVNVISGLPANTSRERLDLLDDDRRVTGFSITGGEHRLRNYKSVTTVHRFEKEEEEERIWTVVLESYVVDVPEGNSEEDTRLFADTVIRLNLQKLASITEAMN; partner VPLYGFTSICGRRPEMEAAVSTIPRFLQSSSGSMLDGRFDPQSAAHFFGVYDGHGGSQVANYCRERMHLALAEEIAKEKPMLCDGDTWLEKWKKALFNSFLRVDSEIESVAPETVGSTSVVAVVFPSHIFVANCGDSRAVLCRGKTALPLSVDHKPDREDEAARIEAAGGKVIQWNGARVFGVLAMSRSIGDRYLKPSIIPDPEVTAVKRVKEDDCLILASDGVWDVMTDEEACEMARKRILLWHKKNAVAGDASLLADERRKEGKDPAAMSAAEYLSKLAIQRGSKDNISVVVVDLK"}
{"Substitution": "E127T", "relative binding score": "60.9%"}
{"Substitution": "R99S", "relative binding score": "5.76%"}
{"Substitution": "T154C", "relative binding score": "22.6%"}
{"Substitution": "R45T", "relative binding score": "2.85%"}
{"Substitution": "N85G", "relative binding score": "43.6%"}
{"Substitution": "H122A", "relative binding score": "-0.937%"}
{"Substitution": "S42A", "relative binding score": "52.2%"}
{"Substitution": "D3C", "relative binding score": "42.4%"}
{"Substitution": "E139P", "relative binding score": "16.5%"}
{"Substitution": "L93D", "relative binding score": "-0.0425%"}
{"Substitution": "C60K", "relative binding score": "-17.5%"}
{"Substitution": "A84L", "relative binding score": "10%"}
{"Substitution": "S27I", "relative binding score": "-9.13%"}
{"Substitution": "S140A", "relative binding score": "13.5%"}
{"Substitution": "P146A", "relative binding score": "25%"}
{"Substitution": "V142A", "relative binding score": "41%"}
{"Substitution": "T120G", "relative binding score": "-3.75%"}
{"Substitution": "F124E", "relative binding score": "31%"}
{"Substitution": "F103E", "relative binding score": "-0.848%"}
{"Substitution": "K126M", "relative binding score": "69.8%"}
{"note": "For quick reference, copied from above (sample 4):"}
{"Sequence": "B2 (RNF4 RING domain)", "lacZ reporter activity": 0}
{"Sequence": "KRQCSDVDDICSICQAEFQKPILLICQHIFCEECMTLWFNREKTCPLCRTVISDHINKW (RNFT1 RING domain (UniProt Q5M7Z0))", "lacZ reporter activity": 0}
{"Sequence": "B1 (MSL2 RING domain)", "lacZ reporter activity": 0}
{"Sequence": "MANWVFCNRCFQPPHRTSCFSLTNCGHVYCDACLGKGKKNECLICKAPCRTVLLSK (RNF212 RING domain (UniProt Q495C1))", "lacZ reporter activity": 0}
{"Sequence": "B3 (RNF5 RING domain)", "lacZ reporter activity": 0}
{"Sequence": "FLKKLEQSFMCVCCQELVYQPVTTECFHNVCKDCLQRSFKAQVFSCPACRHDLGQNYIMI (UHRF2 RING domain (UniProt Q96PU4))", "lacZ reporter activity": 0}
{"Sequence": "B4 (TRIM3 RING domain)", "lacZ reporter activity": 0}
